Assay results pooled from the literature.
Each line is one published result; not all experiments were run side by side. ± gives the spread as reported.
Chain of UniProt Q9Y616 (whole entry, looked up): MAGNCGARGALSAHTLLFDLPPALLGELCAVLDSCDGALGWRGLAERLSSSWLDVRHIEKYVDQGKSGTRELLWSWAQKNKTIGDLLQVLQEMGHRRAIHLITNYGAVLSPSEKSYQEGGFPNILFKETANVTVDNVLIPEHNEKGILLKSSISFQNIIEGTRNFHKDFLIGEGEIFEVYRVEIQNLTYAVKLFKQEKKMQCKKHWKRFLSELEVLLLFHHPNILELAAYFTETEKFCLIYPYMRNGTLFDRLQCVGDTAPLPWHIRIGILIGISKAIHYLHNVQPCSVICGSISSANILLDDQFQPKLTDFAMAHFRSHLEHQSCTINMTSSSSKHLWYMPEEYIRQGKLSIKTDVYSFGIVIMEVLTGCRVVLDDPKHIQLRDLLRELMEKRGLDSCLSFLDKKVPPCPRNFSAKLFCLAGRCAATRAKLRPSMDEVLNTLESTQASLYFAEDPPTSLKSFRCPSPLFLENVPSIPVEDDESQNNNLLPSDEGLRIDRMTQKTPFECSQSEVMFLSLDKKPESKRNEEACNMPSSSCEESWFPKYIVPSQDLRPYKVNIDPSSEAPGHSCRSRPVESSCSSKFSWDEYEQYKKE

| Structure (SMILES) | tested on | assay | test system | setting | scale | endpoint | result |
| --- | --- | --- | --- | --- | --- | --- | --- |
| CC[C@@H]1[C@H](F)C(=O)N[C@@H]1COc1nccc2cc(C(N)=O)c(OC)cc12 | Interleukin-1 receptor-associated kinase 3 (IRAK3, Homo sapiens, UniProt Q9Y616) | ATP-site probe binding, inhibitor, ActivX ATP probe profiling | THP-1 cell lysate | 0.01 mM, kinase domain site | – | inhibition | -5.3% |
| CC(C)Nc1ccnc(Nc2cccc(-c3cccnc3)c2)n1 | MOLM-13 (FLT3-ITD) | cell viability, MTT | – | 72 h | – | EC50 | 136 nM |
| COC(=O)c1ccccc1-c1c2ccc(=N)c(Br)c-2oc2c(Br)c(N)ccc12 | HEK-293T ATF4-FLuc reporter | reporter gene, activator | – | – | – | EC50 | > 9960 nM |
| C[C@]12CCCN1CC1=NNC(=O)c3cc(F)cc4[nH]c2c1c34 | SNU1 gastric cancer cells | cell viability | – | concentration not given, together with: with temozolomide | – | EC50 | 4300 nM |
| O=C(ONc1nc2nonc2nc1Nc1ccccc1F)c1ccccc1F | L6 rat myoblasts | oxygen consumption rate, Seahorse XF analyzer | – | – | – | EC50 | > 100000 nM |
| CC(C)C[C@@H](O)C(=O)O | – | binding, equilibrium dialysis LC-MS | – | 5 µM, thermostabilized A2AR-BRIL construct | reference: no-protein control, direction not given | z-scored log2 fold change | -0.579 |
| COc1cnc2cccc(N3CCc4c(cc(Cn5ccnc5C)cc4-c4cn(C)nc4C(F)(F)F)C3=O)c2c1 | MKN-74 | cell growth, inhibitor | – | 120 h | – | EC50 | > 30000 nM |
| N.N.O=C([O-])C1(C(=O)[O-])CCC1.[Pt+2] | PEO4 platinum-resistant | cell viability | – | – | – | EC50 | 190000 nM |
| N=C(N)NCCC[C@@H](NC(=O)CCOCCOCCNC(=O)[C@H](CCCCNC(=O)CC[C@H](NC(=O)c1ccc(NCc2cnc3nc(N)[nH]c(=O)c3n2)cc1)C(=O)O)NC(=O)CO/N=C/[C@H](F)[C@@H](O)[C@H](O)[C@H](O)CO)C(=O)NCC(=O)N[C@H](CC(=O)O)C(N)=O [fluorine-18 labelled] | – | – | female nude mouse, kidney | intravenous, 1 µg, 2.5 h | – | tissue uptake | 2.05 ± 0.49 %ID/g |
| Cc1cc(Nc2ccc(S(F)(F)(F)(F)F)cc2)n2nc(C(C)(F)F)nc2n1 | Plasmodium vivax | – | human Plasmodium vivax malaria patients | oral, 600 mg | – | patients with cardiac adverse events | 22.2% |
| CCn1cc(-c2cc(Cn3ccoc3=N)cc3c2CCN([C@@H](C)c2cc(OC)ccn2)C3=O)c(C(F)(F)F)n1 | RT-4 | cell growth, inhibitor | – | 120 h | – | EC50 | 651 nM |
| CC(C)Nc1ccnc(Nc2cccc(-c3cnccn3)c2)n1 | MOLM-13 (FLT3-ITD/D835Y) | cell viability, MTT | – | 72 h | – | EC50 | 77 nM |
| c1ccc(COc2ccc(Nc3ccc4ncc(OCC5CCNCC5)nc4c3)cc2)cc1 | NB-4 | cell proliferation, XTT | – | 7 days | – | EC50 | 1500 ± 110 nM |
| COc1cc(-c2ccccc2)ncc1C(=O)Nc1ccc2c(=O)[nH]c(-c3ccc(C(C)(C)O)cc3)nc2c1 | Apc Q1405X mutant organoids | organoid area, live-cell imaging | mouse small intestinal organoids | 144 h, Tnks1 genotype Tnks1-/- | – | EC50 | 88.6 nM |
| CC1(C)CCC(CN2CCN(c3ccc(C(=O)NS(=O)(=O)c4ccc(NCC5CCOCC5)c([N+](=O)[O-])c4)c(Oc4cnc5[nH]ccc5c4)c3)CC2)=C(c2ccc(Cl)cc2)C1 | canine unclassified myeloid leukaemia cells | cell killing | – | 24 h | – | EC50 | 25 nM |
| c1cc(N2CCCCC2)ccc1Nc1cc2ncc(OCC3CCNCC3)nc2cc1-c1ccc(N2CCCCC2)cc1 | NB-4 | cell proliferation, XTT | – | 7 days | – | EC50 | 1400 ± 90 nM |
| Cc1cc2c(C(N)=O)cccc2n1-c1nc2c(c(NCc3ccccc3)n1)COCC2 | HEK-293T ATF4-FLuc reporter | reporter gene, activator | – | – | – | EC50 | 778 nM |
| C=C(NC(=O)C(=C)NC(=O)c1csc(C2=N[C@@H]3c4csc(n4)[C@H]4NC(=O)c5csc(n5)[C@H]([C@](C)(O)[C@@H](C)O)NC(=O)[C@H]5CSC(=N5)/C(=C/C)NC(=O)[C@H]([C@@H](C)O)NC(=O)c5csc(n5)[C@]3(CC2)NC(=O)[C@H](C)NC(=O)C(=C)NC(=O)[C@H](C)NC(=O)[C@H]([C@@H](C)CC)N[C@@H]2C=Cc3c([C@H](C)O)cc(nc3[C@H]2O)C(=O)O[C@@H]4C)n1)C(N)=O | H-MESO-1 | cell viability, crystal violet | – | 48 h | – | EC50 | 910 ± 30 nM |
| CC(C)C[C@H](NC(=O)C[C@H](O)[C@H](CC(C)C)NC(=O)[C@H](Cc1c[nH]cn1)NC(=O)CNC(=O)[C@@H](NC(=O)[C@H](C)NC(=O)[C@H](Cc1c[nH]c2ccccc12)NC(=O)[C@H](CCC(N)=O)NC(=O)[C@@H](Cc1ccccc1)NC(=O)COCCOCCNC(=O)CCC(C(=O)O)N1CCN(CC(=O)O)CCN(CC(=O)O)CCN(CC(=O)O)CC1)C(C)C)C(N)=O (some centres unmarked) [lutetium-177 labelled] | – | – | female BALB/c nu/nu mice, muscle | intravenous, 100 pmol, 2 h, together with: PA 300 µg | – | tissue uptake | 0.05 ± 0.02 %ID/g |
| c1cc(-c2cc3ncc(OCC4CCNCC4)nc3cc2-c2cccc(N3CCCCC3)c2)cc(N2CCCCC2)c1 | NB-4 | cell proliferation, XTT | – | 7 days | – | EC50 | 1300 ± 130 nM |
| Nc1ccn([C@@H]2O[C@H](COP(=O)(O)OP(=O)(O)OP(=O)(O)O)[C@@H](O)[C@H]2O)c(=O)n1 | – | binding, equilibrium dialysis LC-MS | – | 5 µM, thermostabilized A2AR-BRIL construct | reference: no-protein control, direction not given | z-scored log2 fold change | -0.79 |
| CCn1cc(-c2cc(Cn3ccnc3)cc3c2CCN([C@H](c2cc(OC)ccn2)C2CC2)C3=O)c(C(F)(F)F)n1 | Farage | cell growth | – | 120 h | – | EC50 | 3480 nM |
| CC(=O)c1ccc(-c2cccc(NC(=O)CCc3cccc4c3B(O)OC4)c2)cc1 | HeLa CPSF3 Y207H mutant | transcriptional read-through, RT-qPCR, measured: SCARF1 read-through mRNA downstream of RILP | – | – | reference: GAPDH | EC50 | 704 nM |
| OC(CCN1CCCCC1)(c1ccccc1)C1CC2C=CC1C2 (centres unmarked) | – | resting-state EEG | healthy elderly humans | oral, 2 mg, eyes closed, LS mean | – | EEG Beta3-power Pz-O1 | 2.2 µV² |
| c1cncc(-c2cccc(Nc3nccc(NC4CCCCC4)n3)c2)c1 | MOLM-13 (FLT3-ITD/D835Y) | cell viability, MTT | – | 72 h | – | EC50 | 1150 nM |
| Cn1cc(-c2ccc(-c3cncc(Cl)c3N3CCC4(CCNC4=O)CC3)cc2)cn1 | COLO 205 | gene expression, microarray, measured: CXCL16 mRNA | – | concentration not given, 6 h | reference: untreated cells | log2 fold change | 2.46 |

For quick reference, copied from above:
| Structure (SMILES) | tested on | assay | test system | setting | scale | endpoint | result |
| --- | --- | --- | --- | --- | --- | --- | --- |
| c1ccc(COc2ccc(Nc3ccc4ncc(OCC5CCNCC5)nc4c3)cc2)cc1 | NB-4 | cell proliferation, XTT | – | 7 days | – | EC50 | 1500 ± 110 nM |
| CC(C)Nc1ccnc(Nc2cccc(-c3cccnc3)c2)n1 | MOLM-13 (FLT3-ITD) | cell viability, MTT | – | 72 h | – | EC50 | 136 nM |
| Nc1ccn([C@@H]2O[C@H](COP(=O)(O)OP(=O)(O)OP(=O)(O)O)[C@@H](O)[C@H]2O)c(=O)n1 | – | binding, equilibrium dialysis LC-MS | – | 5 µM, thermostabilized A2AR-BRIL construct | reference: no-protein control, direction not given | z-scored log2 fold change | -0.79 |
| N=C(N)NCCC[C@@H](NC(=O)CCOCCOCCNC(=O)[C@H](CCCCNC(=O)CC[C@H](NC(=O)c1ccc(NCc2cnc3nc(N)[nH]c(=O)c3n2)cc1)C(=O)O)NC(=O)CO/N=C/[C@H](F)[C@@H](O)[C@H](O)[C@H](O)CO)C(=O)NCC(=O)N[C@H](CC(=O)O)C(N)=O [fluorine-18 labelled] | – | – | female nude mouse, kidney | intravenous, 1 µg, 2.5 h | – | tissue uptake | 2.05 ± 0.49 %ID/g |
